{"data": "Assay results pooled from the literature", "organism": "Pseudomonas aeruginosa", "note": "Compare with care: the assays were run in different laboratories."}
{"Compound": "Nc1nc2ccc(Oc3ccc4nc(N)sc4c3)cc2s1", "assay": "swarming area, modified FAB agar", "test system": "PA14-lux", "setting": "200 µM, 24 h", "how to read": "relative to: DMSO vehicle", "endpoint": "inhibition", "value": "> 90%"}
{"Compound": "CC[C@H](C)[C@H](NC(=O)[C@H](CCCCN)NC(=O)[C@H](CCCCN)NC(=O)[C@H](Cc1ccccc1)NC(=O)[C@H](Cc1ccccc1)NC(=O)[C@H](CCCCN)NC(=O)[C@H](CCCCN)NC(=O)[C@H](Cc1ccccc1)NC(=O)[C@H](CCCNC(=N)N)NC(=O)[C@@H](N)CCCCN)C(=O)N[C@@H](CCCCN)C(=O)N[C@@H](CCCCN)C(=O)N[C@@H](CO)C(=O)N[C@H](C(=O)N[C@@H](CCCCN)C(=O)N[C@@H](CCCCN)C(=O)N[C@@H](CCCNC(=N)N)C(=O)N[C@H](C(=O)N[C@@H](CCCCN)C(=O)N[C@@H](CCCCN)C(=O)N[C@@H](CC(C)C)C(=O)N[C@@H](Cc1ccccc1)C(=O)N[C@@H](CCCCN)C(=O)N[C@@H](CCCCN)C(=O)N1CCC[C@H]1C(=O)N[C@@H](CCCNC(=N)N)C(=O)N[C@H](C(=O)N[C@H](C(=O)N1CCC[C@H]1C(=O)N[C@H](C(=O)N[C@@H](CO)C(=O)N[C@H](C(=O)N1CCC[C@H]1C(=O)N[C@@H](Cc1ccccc1)C(=O)O)[C@@H](C)CC)[C@@H](C)CC)[C@@H](C)CC)C(C)C)C(C)C)C(C)C", "test system": "P1 clinical isolate", "setting": "20 h", "endpoint": "MBC", "value": "16 µg/mL"}
{"Compound": "CC(C)[C@H]1NC(=O)[C@H](Cc2ccccc2)NC(=O)[C@@H](C(C)C)NC(=O)[C@@H](C)NC(=O)[C@H](CO)NC(=O)[C@@H](Cc2c(-c3ccc(-c4ccc5ccccc5c4)cc3)[nH]c3ccccc23)NC(=O)[C@@H](CO)NC1=O", "assay": "broth dilution", "endpoint": "MIC90", "value": "> 50 µM"}
{"Compound": "Nc1nc2ccc(Oc3cc[nH]c(=O)c3)cc2s1", "assay": "swarming area, modified FAB agar", "test system": "PA14-lux", "setting": "200 µM, 24 h", "how to read": "relative to: DMSO vehicle", "endpoint": "inhibition", "value": "80%"}
{"Compound": "O=C(O)CN(CC(=O)O)CP(=O)(O)O", "test system": "VIM-2 and OXA-50 producer", "setting": "32 µg/mL, added: meropenem", "endpoint": "meropenem MIC", "value": "1 µg/mL"}
{"Compound": "CC(C)C[C@H](NC(=O)[C@H](CCN)NC(=O)[C@H](CCN)NC(=O)[C@@H](Cc1ccccc1)NC(=O)[C@H](CC(C)C)NC(=O)[C@H](CCN)NC(=O)[C@H](CCN)NC(=O)[C@@H](CCN)NC(=O)CCS)C(N)=O", "test system": "PAO1", "setting": "24 h, 37 °C", "endpoint": "MBC", "value": "> 128 µM"}
{"Compound": "CC(C)[C@H]1NC(=O)[C@H](Cc2ccccc2)NC(=O)[C@@H](C(C)C)NC(=O)[C@@H](C)NC(=O)[C@H](CO)NC(=O)[C@@H](Cc2c(-c3ccc(C4CCCCC4)cc3)[nH]c3ccccc23)NC(=O)[C@@H](CO)NC1=O", "assay": "broth dilution", "endpoint": "MIC90", "value": "> 50 µM"}
{"Compound": "Nc1nc2ccc(Oc3ccncc3)cc2s1", "assay": "swarming area", "test system": "PA14-lux", "setting": "200 µM, 24 h", "how to read": "relative to: DMSO", "endpoint": "swarming inhibition", "value": "39.6%"}
{"Compound": "CC(C)C[C@H](NC(=O)[C@H](CS)NC(=O)[C@H](CCCCN)NC(=O)CCNC(=O)CCCCCNC(=O)[C@H](CCCNC(=N)N)NC(=O)CCCCCNC(=O)[C@H](CCCNC(=N)N)NC(=O)[C@H](CCCNC(=N)N)NC(=O)CCCCCNC(=O)[C@H](CCCNC(=N)N)NC(=O)[C@H](CCCNC(=N)N)NC(=O)CCCCCNC(=O)[C@H](CCCNC(=N)N)NC(=O)[C@H](CCCNC(=N)N)NC(=O)CCCCCNC(=O)[C@@H](N)CCCNC(=N)N)C(=O)N[C@H](C(=O)N[C@@H](CCCCN)C(=O)N[C@@H](CO)C(=O)N[C@@H](Cc1ccc(O)cc1)C(=O)N[C@H](C(=O)N[C@@H](CO)C(=O)N[C@@H](CS)C(=O)N[C@@H](CCCCN)C(=O)O)[C@@H](C)O)[C@@H](C)O", "assay": "crystal violet", "test system": "ATCC 27853", "setting": "48 µM", "endpoint": "biofilm biomass reduction", "value": "~95%"}
{"Compound": "CC(C)C[C@H](NC(=O)[C@H](CC(C)C)NC(=O)[C@H](CCCCN)NC(=O)[C@H](Cc1ccccc1)NC(=O)[C@@H](NC(=O)[C@H](CCCNC(=N)N)NC(=O)[C@@H](N)CCCCN)C(C)C)C(=O)N[C@@H](CCCCN)C(=O)N[C@@H](CCCNC(=N)N)C(=O)N[C@@H](Cc1ccc(O)cc1)C(=O)N[C@@H](Cc1c[nH]c2ccccc12)C(=O)N[C@@H](CCCNC(=N)N)C(=O)N[C@@H](CCC(N)=O)C(=O)N[C@@H](CC(C)C)C(=O)N[C@@H](CCCCN)C(=O)N[C@@H](CCCCN)C(=O)N1CCC[C@H]1C(=O)N[C@H](C(=O)N[C@@H](CCCNC(=N)N)C(=O)NCCOCCOCC(=O)O)C(C)C", "test system": "RPMI-1640 10% FBS", "setting": "2× MIC, 37 °C", "endpoint": "time to complete killing", "value": "≤ 60 min"}
{"Compound": "CCCCCCCCCC(=O)OCCSCCC(=O)N[C@H](CCN)C(=O)N[C@@H](CCN)C(=O)N[C@@H](CCN)C(=O)N[C@@H](CC(C)C)C(=O)N[C@H](Cc1ccccc1)C(=O)N[C@@H](CCN)C(=O)N[C@@H](CCN)C(=O)N[C@@H](CC(C)C)C(N)=O", "test system": "PAO1", "setting": "24 h, 37 °C", "endpoint": "MBC", "value": "16 µM"}
{"Compound": "Nc1nc2ccc(S(=O)(=O)c3cccnc3)cc2s1", "assay": "swarming area, modified FAB agar", "test system": "PA14-lux", "setting": "200 µM, 24 h", "how to read": "relative to: DMSO vehicle", "endpoint": "inhibition", "value": "-27.5%"}
{"Compound": "CN[C@H](CC(C)C)C(=O)N[C@H]1C(=O)N[C@@H](CC(N)=O)C(=O)N[C@H]2C(=O)N[C@H]3C(=O)N[C@H](C(=O)N[C@H](C(=O)O)c4cc(O)cc(O)c4-c4cc3ccc4O)[C@H](O)c3ccc(c(Cl)c3)Oc3cc2cc(c3O[C@@H]2O[C@H](CO)[C@@H](O)[C@H](O)[C@H]2O[C@H]2C[C@](C)(NCc3ccc(OCc4cn(CCCCC(=O)N[C@H](C(=O)N[C@@H](CCN)C(=O)N[C@H]5CCNC(=O)[C@H]([C@@H](C)O)NC(=O)[C@H](CCN)NC(=O)[C@H](CCN)NC(=O)[C@H](CC(C)C)NC(=O)[C@@H](CC(C)C)NC(=O)[C@H](CCN)NC5=O)[C@@H](C)O)nn4)c(OC)c3)[C@H](O)[C@H](C)O2)Oc2ccc(cc2Cl)[C@H]1O", "assay": "broth microdilution", "test system": "ATCC 17978, cation-adjusted Mueller-Hinton broth", "endpoint": "MIC", "value": "12 µM"}
{"Compound": "NCc1ccc(S(=O)(=O)c2ccc3nc(N)sc3c2)cn1", "assay": "swarming area", "test system": "PA14-lux", "setting": "200 µM, 24 h", "how to read": "relative to: DMSO", "endpoint": "swarming inhibition", "value": "91.5%"}
{"Compound": "CC(C)C[C@H](NC(=O)[C@H](Cc1ccccc1)NC(=O)[C@H](CCC(N)=O)NC(=O)[C@H](Cc1ccc(O)cc1)NC(=O)[C@H](CCCCN)NC(=O)[C@@H]1CCCN1C(=O)[C@H](CCCNC(=N)N)NC(=O)[C@H](CCC(N)=O)NC(=O)[C@H](Cc1c[nH]c2ccccc12)NC(=O)[C@H](CS)NC(=O)[C@H](Cc1c[nH]c2ccccc12)NC(=O)[C@H](Cc1ccccc1)NC(=O)[C@H](CCCNC(=N)N)NC(=O)[C@H](CCCCN)NC(=O)[C@H](CCCCN)NC(=O)[C@H](CCCCN)NC(=O)[C@@H](NC(=O)[C@@H](NC(=O)[C@H](CC(C)C)NC(=O)[C@@H](N)CO)C(C)C)[C@@H](C)O)C(=O)O", "endpoint": "MBC/MIC ratio", "value": 0.0625}
{"Compound": "CCCCCCCCCC(=O)OCCSC[C@H](N)C(=O)N[C@H](CCN)C(=O)N[C@@H](CCN)C(=O)N[C@@H](CCN)C(=O)N[C@@H](CC(C)C)C(=O)N[C@H](Cc1ccccc1)C(=O)N[C@@H](CCN)C(=O)N[C@@H](CCN)C(=O)N[C@@H](CC(C)C)C(N)=O", "test system": "PAO1", "setting": "24 h, 37 °C", "endpoint": "MBC", "value": "32 µM"}
{"Compound": "C#CCNC(=O)[C@H]1NC(=O)[C@H]2NC(=O)[C@H](NC(=O)[C@@H]3NC(=O)[C@H](CC(N)=O)NC(=O)[C@H](NC(=O)[C@@H](CC(C)C)NC)[C@H](O)c4ccc(c(Cl)c4)Oc4cc3cc(c4O[C@@H]3O[C@H](CO)[C@@H](O)[C@H](O)[C@H]3O[C@H]3C[C@](C)(N)[C@H](O)[C@H](C)O3)Oc3ccc(cc3Cl)[C@H]2O)c2ccc(O)c(c2)-c2c(O)cc(O)cc21", "assay": "broth microdilution", "test system": "ATCC 27853, cation-adjusted Mueller-Hinton broth", "setting": "18 to 20 h, 37 °C, 0.002% polysorbate 80", "endpoint": "MIC", "value": "> 128 µg/mL"}
{"Compound": "C[C@@H](N)[C@H](O)CCCCCCCC(=O)CCCCCCCCCCCCCC[C@@H](O[C@@H]1O[C@H](CO)[C@@H](O)[C@H](O)[C@H]1O)[C@@H](N)CO", "assay": "microbial growth, resazurin", "test system": "ATCC27853", "setting": "50 µM", "endpoint": "inhibition", "value": "99%"}
{"Compound": "Cc1nc2ccc(N)cc2s1", "assay": "pyocyanin production", "test system": "PA14-lux", "setting": "200 µM, 18 h", "how to read": "relative to: DMSO vehicle", "endpoint": "inhibition", "value": "6.05%"}
{"Compound": "CC(C)[C@H]1NC(=O)[C@H](Cc2ccccc2)NC(=O)[C@@H](C(C)C)NC(=O)[C@@H](C)NC(=O)[C@H](CO)NC(=O)[C@@H](Cc2c(-c3ccc(-c4cccc5ccccc45)cc3)[nH]c3ccccc23)NC(=O)[C@@H](CO)NC1=O", "assay": "broth dilution", "endpoint": "MIC90", "value": "> 50 µM"}
{"Compound": "C#CCOc1ccc(CN[C@@]2(C)C[C@H](O[C@H]3[C@H](Oc4c5cc6cc4Oc4ccc(cc4Cl)[C@@H](O)[C@@H](NC(=O)[C@@H](CC(C)C)NC)C(=O)N[C@@H](CC(N)=O)C(=O)N[C@H]6C(=O)N[C@H]4C(=O)N[C@H](C(=O)N[C@H](C(=O)N[C@@H](CCCNC(=N)N)C(N)=O)c6cc(O)cc(O)c6-c6cc4ccc6O)[C@H](O)c4ccc(c(Cl)c4)O5)O[C@H](CO)[C@@H](O)[C@@H]3O)O[C@@H](C)[C@H]2O)cc1OC", "assay": "broth microdilution", "test system": "ATCC 13883, cation-adjusted Mueller-Hinton broth", "endpoint": "MIC", "value": "72 µM"}
{"Compound": "CC(C)[C@H]1NC(=O)[C@H](Cc2ccccc2)NC(=O)[C@@H](C(C)C)NC(=O)[C@@H](C)NC(=O)[C@H](C)NC(=O)[C@@H](Cc2c(-c3ccc(-c4ccc(-c5ccccc5)cc4)cc3)[nH]c3ccccc23)NC(=O)[C@@H](CO)NC1=O", "assay": "broth dilution", "endpoint": "MIC90", "value": "> 50 µM"}
{"Compound": "CN[C@H](CC(C)C)C(=O)N[C@H]1C(=O)N[C@@H](CC(N)=O)C(=O)N[C@H]2C(=O)N[C@H]3C(=O)N[C@H](C(=O)N[C@H](C(=O)NCc4cn(CCCCC(=O)N[C@H](C(=O)N[C@@H](CCN)C(=O)N[C@H]5CCNC(=O)[C@H]([C@@H](C)O)NC(=O)[C@H](CCN)NC(=O)[C@H](CCN)NC(=O)[C@H](CC(C)C)NC(=O)[C@@H](CC(C)C)NC(=O)[C@H](CCN)NC5=O)[C@@H](C)O)nn4)c4cc(O)cc(O)c4-c4cc3ccc4O)[C@H](O)c3ccc(c(Cl)c3)Oc3cc2cc(c3O[C@@H]2O[C@H](CO)[C@@H](O)[C@H](O)[C@H]2O[C@H]2C[C@](C)(N)[C@H](O)[C@H](C)O2)Oc2ccc(cc2Cl)[C@H]1O", "assay": "broth microdilution", "test system": "ATCC 25922, cation-adjusted Mueller-Hinton broth", "endpoint": "MIC", "value": "6 µM"}
{"Compound": "Nc1nc2ccc(S(=O)(=O)c3ccncc3)cc2s1", "assay": "swarming area, modified FAB agar", "test system": "PA14-lux", "setting": "200 µM, 24 h", "how to read": "relative to: DMSO vehicle", "endpoint": "inhibition", "value": "-8.36%"}
